Measurements gathered from unrelated publications.
Values joined by “and” are separate records of one study, mostly repeats; a detail may differ. ± marks the error that the study gave.

Compound	assay	system	conditions	scale	endpoint	value
CCCCN1C(=O)c2cccc3c(NCCCCCCCCCCN4CCOCC4)ccc(c23)C1=O	–	water	pH 6.0	–	emission maximum	558 nm
C=CC(=O)Nc1cc(Nc2nccc(-c3c[nH]c4ccccc34)n2)c(OC)cc1N(C)CCN(C)C	storage stability	human dried blood spots	24 h, on ice, low QC level	–	recovery	73.3%
Cc1nn(-c2nc3c(F)cc(F)cc3s2)c(O)c1C(c1ccc(C(F)(F)F)cc1)c1c(C)nn(-c2nc3c(F)cc(F)cc3s2)c1O	–	ICR mouse, plasma	oral, 50 mg/kg	–	Cmax	70900 ng/mL and 106000 ng/mL and 94900 ng/mL
C/C(N)=N/C(=N\S(=O)(=O)c1ccc(C(F)(F)F)cc1)N1C[C@H](c2ccccc2)C(c2ccc(Cl)cc2)=N1	–	male C57BL/6 mouse, lung	intravenous, 10 mg/kg	–	Cmax	145000 ng/mL
Cc1cc(-c2ccc(C(=O)[C@@H]3CCCC[C@H]3C(=O)Nc3cnn4c3C(=O)NCC4)cc2)[nH]n1	–	human, urine	oral, 200 mg, 0-48 h	reference: dose	cumulative recovery of radioactivity	5.7%
COCC1CN(C2CCN(c3cc(OC)c(Nc4ncc(Br)c(Nc5ccc6c(c5P(C)(C)=O)OCCO6)n4)cc3C)CC2)C1	–	EGFR-mutant NSCLC patients	oral, 60 mg once daily	–	patients with adverse events	100%
O=C(Nc1cnccc1-c1ccc([18F])cc1)c1ccnc(NC(=O)C2CC2)c1	–	FVB/NJ mice (both sexes), urine	intravenous, dose not given, 120 min	–	SUV	21.1
C=C[C@]1(C)C[C@@H](OC(=O)CSc2ccc(NC(=O)c3ccco3)cc2)[C@]2(C)[C@H](C)CC[C@]3(CCC(=O)[C@H]32)[C@@H](C)[C@@H]1O	–	Mycoplasma gallisepticum-infected chickens, plasma	intramuscular, 5 mg/kg, 2 h	–	plasma concentration	336 ng/mL and 133 ng/mL and 279 ng/mL and 138 ng/mL and 141 ng/mL and 454 ng/mL and 271 ng/mL
CN(C)C(=O)c1cccc(N2Cc3cn(Cc4ccccc4F)nc3C2)c1	metabolic stability	rat, liver microsomes	–	–	half-life	46 min
CC(C)(O)c1ncc([S@](N)(=O)=NC(=O)Nc2c3c(cc4c2CCC4)CCC3)s1	refers to: general and administration-site disorders	healthy human volunteers	oral, 50 mg twice daily, 14 days, enteric-coated tablet	–	subjects with adverse events	43%
CCCCN1C(=O)c2cccc3c(NCCCCCCCCN4CCOCC4)ccc(c23)C1=O	–	dichloromethane	–	–	emission maximum	517 nm
CC(C)C[C@@H](NC(=O)[C@H](NC(=O)[C@H]1CCCN1)[C@H](C)O)C(=O)N[C@H](Cc1c[nH]cn1)C(=O)N[C@@H](C(=O)N[C@H](Cc1c[nH]cn1)C(=O)N[C@H](CC(N)=O)C(=O)N[C@H](CCCNC(=N)N)C(=O)N[C@H](CCCNC(=N)N)C(=O)N[C@H](CCCNC(=N)N)C(=O)N[C@H](CCCNC(=N)N)C(=O)N[C@H](CCCNC(=N)N)C(N)=O)[C@H](C)O	–	Beagle dog, blood	oral, 3 mg/kg daily, 3 months	–	triglycerides	3.2 ± 1.8 mmol/L
Cc1ccc(CN2C(=O)/C(=N\c3ccc(Cl)cc3Br)c3ccccc32)cc1	–	mouse, blood	100 mg/kg	–	MCH	14.4 ± 0.4 pg
CCCCCCCCCCCCCCCC(=O)N[C@@H](CCC(=O)NCCCC[C@H](NC(=O)[C@H](C)NC(=O)[C@H](C)NC(=O)[C@H](CCC(N)=O)NC(=O)CNC(=O)[C@H](CCC(=O)O)NC(=O)[C@H](CC(C)C)NC(=O)[C@H](Cc1ccc(O)cc1)NC(=O)[C@H](CO)NC(=O)[C@H](CO)NC(=O)[C@@H](NC(=O)[C@H](CC(=O)O)NC(=O)[C@H](CO)NC(=O)[C@@H](NC(=O)[C@H](Cc1ccccc1)NC(=O)[C@@H](NC(=O)CNC(=O)[C@H](CCC(=O)O)NC(=O)[C@H](C)NC(=O)[C@@H](N)Cc1cnc[nH]1)[C@@H](C)O)[C@@H](C)O)C(C)C)C(=O)N[C@@H](CCC(=O)O)C(=O)N[C@@H](Cc1ccccc1)C(=O)N[C@H](C(=O)N[C@@H](C)C(=O)N[C@@H](Cc1c[nH]c2ccccc12)C(=O)N[C@@H](CC(C)C)C(=O)N[C@H](C(=O)N[C@@H](CCCNC(=N)N)C(=O)NCC(=O)N[C@@H](CCCNC(=N)N)C(=O)NCC(=O)O)C(C)C)[C@@H](C)CC)C(=O)O	–	Kunming mouse, plasma	subcutaneous, 50 nmol/kg	–	MRT	324 ± 24 min
O=C(Nc1cnccc1-c1ccc([18F])nc1)c1ccnc(NC(=O)C2CC2)c1	–	FVB/NJ mice, both sexes, brain	intravenous, 40 min, median, no P-gp inhibitor	–	SUV	0.045
CCCCN1C(=O)c2cccc3c(NCCCCCCN4CCOCC4)ccc(c23)C1=O	–	ethylene glycol	–	–	emission maximum	543 nm
COc1cccc(OC)c1-c1cc(C(=O)NC2(C(=O)O)C3CC4CC(C3)CC2C4)nn1-c1ccc(C(=O)N(C)CCOCCOCCN(C)C(=O)[C@H](CCCCNC(=O)[C@H](CC(C)C)NC(=O)C2OC2C(=O)O)NC(=O)CN2CCN(CC(=O)[O-])CCN(CC(=O)[O-])CCN(CC(=O)[O-])CC2)cc1C(C)C.[177Lu+3] (mixture of isomers)	–	mouse HT-29 xenograft	168 h, biodistribution	reference: tumour over pancreas	tumour-to-pancreas ratio	5.65
CCCCN1C(=O)c2cccc3c(NCCCN4CCOCC4)ccc(c23)C1=O	–	acetonitrile	–	–	emission maximum	520 nm
CC[C@H](C)[C@@H]1NC(=O)[C@H](Cc2ccccc2)NC(=O)CCSCc2cccc(c2)CSCCNC(=O)[C@H](C)NC(=O)[C@H](Cc2ccc(O)cc2)NC(=O)[C@H](CC(=O)O)NC(=O)[C@H](Cc2ccc(F)cc2)NC(=O)[C@H](CC(C)C)NC(=O)[C@H](CCCCN)NC1=O	PAMPA	–	200 µM, 5 h, pH 7.4	–	membrane retention	< -0.1%
C=C(NC(=O)c1csc(-c2nc3c(cc2O)-c2nc(cs2)C(=O)NC(C(C)O)C(=O)NC(=C(C)OC)c2nc(cs2)C(=O)NC2c4nc(cs4)C(=O)NC(COC(=O)c4c5c6c(cccc6n4O)COC(=O)C(OC4CC(C)(O)C(N(C)C)C(C)O4)C2OC5)c2nc-3cs2)n1)C(N)=O (centres unmarked)	–	Sprague-Dawley rats, both sexes, plasma	intravenous infusion, 6 mg/kg, day 1, multiple dosing	–	AUC(0-tau)	1770 ± 495 ng·h/mL
CCCCN1C(=O)c2cccc3c(NCCCCN4CCOCC4)ccc(c23)C1=O	–	dichloromethane	–	–	emission maximum	509 nm

Compound	assay	system	conditions	scale	endpoint	value
COc1cc(-c2nc3ccccc3s2)cc(CN2CCNCCN(Cc3cc(-c4nc5ccccc5s4)cc(OC)c3O)CC2)c1O	UV-vis spectrophotometric titration	aqueous NaCl 0.1 M	20 µM, 25 °C, pH 3 to 11	–	pKa2	5.41
CC(C)[C@H](NC(=O)[C@H](Cc1ccccc1)NC(=O)[C@H](Cc1ccccc1)NC(=O)OCC1c2ccccc2-c2ccccc21)C(=O)N[C@@H](CCC(=O)O)C(=O)N[C@@H](CCC(=O)O)C(N)=O	CD spectroscopy	peptide nanofibres	–	–	β-sheet content	38.9%
CC(C)C[C@H](NC(=O)[C@@H](CCCCNC(=O)[C@@H](Cc1ccccc1)NC(=O)CCCCCCCNC(=O)CN1CCN(CC(=O)O)CCN(CC(=O)O)CCN(CC(=O)O)CC1)NC(=O)[C@H](Cc1ccc(O)cc1)NC(=O)[C@H](CO)NC(=O)[C@H](Cc1c[nH]c2ccccc12)NC(=O)[C@H](Cc1c[nH]cn1)NC(=O)[C@@H]1CCC(=O)N1)C(=O)N[C@@H](CCCNC(=N)N)C(=O)N1CCC[C@H]1C(=O)NCC(N)=O [indium-111 labelled]	–	male athymic nude mice, DU-145 prostate cancer xenograft, urine	intravenous, 0.037 MBq, 1 h	–	excreted dose	82.2 ± 1.54%
CCC1CNC(CC)CN(C(C(=O)[O-])c2ccc(C(=O)[O-])cc2)C(CC)CN(CC(=O)[O-])C(CC)CN1.[Mn+2] (centres unmarked)	ICP-MS	BALB/c mouse, lung	intravenous, 0.05 mmol/kg, 30 min, without anaesthesia	–	Mn content	0.6 ± 0.07 µg/g
CCCCN1C(=O)c2cccc3c(NCCN4CCOCC4)ccc(c23)C1=O	–	toluene	–	–	emission maximum	497 nm
C=CC(=O)Nc1cc(Nc2nccc(-c3cn(C)c4ccccc34)n2)c(OC)cc1N(C)CCNC	–	human, plasma	72 h, on ice, high QC level	–	remaining compound	76.6%
COc1cnc2cccc(N3CCc4c(cc(Cn5ccnc5)cc4-c4cn(C)nc4C(F)(F)F)C3=O)c2c1	–	male CD-1 mouse, plasma	intravenous, 3 mg/kg	–	half-life	60 min
CN[C@H]1CC[C@H]([C@@]2(C)Oc3c(Cl)cc(C(=O)NCc4c(C)cc(C)[nH]c4=O)c(C)c3O2)CC1	–	healthy men, feces	oral, 200 mg [14C]-valemetostat	reference: dose	excretion	1.64%
CN(O)C(=O)CCC(=O)NCCCN(CCCCN(CCCNC(=O)CCC(=O)N(C)O)C(=O)CCC(=O)N(C)O)C(=O)CCC(=O)N(C)O.[89Zr]	–	human plasma	3 d, 37 °C	–	intact complex	100%
COc1cccc(OC)c1-c1cc(C(=O)NC2(C(=O)O)C3CC4CC(C3)CC2C4)nn1-c1ccc(C(=O)N(C)CCCN(C)C(=O)[C@H](CCCCNC(=O)[C@H](CC(C)C)NC(=O)C2OC2C(=O)O)NC(=O)CN2CCN(CC(=O)[O-])CCN(CC(=O)[O-])CCN(CC(=O)[O-])CC2)cc1C(C)C.[177Lu+3] (mixture of isomers)	–	mouse HT-29 xenograft	24 h, biodistribution	reference: tumour over spleen	tumour-to-spleen ratio	6.07
COc1ccc(-c2cc(=O)c3c(OC)c(O)c(OC)cc3o2)cc1	cyclic voltammetry	DMSO, 0.1 M Bu4NPF6	25 °C	–	half-wave potential	-2.12 V vs Ag/AgCl
CN(C)C(=O)c1cccc(N2Cc3cn(Cc4cccc(C(F)(F)F)c4)nc3C2)c1	metabolic stability	rat, liver microsomes	–	–	half-life	33 min
C=CC(=O)N1CCCC(n2c(=O)c3ncccc3n(Cc3ccc(Oc4ccccc4)cc3)c2=O)C1 (centres unmarked)	–	male BALB/c mouse, plasma	intraperitoneal, 200 mg/kg, 5 min	–	concentration	29200 ng/mL
Cc1nc(N)nc2c1C(=O)N[C@@H](c1ccc(F)cc1-c1cccc(O[11CH3])n1)C2	ex vivo biodistribution	healthy mice, bone	60 min post-injection, baseline, vehicle pre-treatment	–	SUV	0.6 ± 0.4
COc1cccc(OC)c1-c1cc(C(=O)NC2(C(=O)O)C3CC4CC(C3)CC2C4)nn1-c1ccc(C(=O)N(C)CCOCCN(C)C(=O)[C@H](CCCCNC(=O)[C@H](CC(C)C)NC(=O)C2OC2C(=O)O)NC(=O)CN2CCN(CC(=O)[O-])CCN(CC(=O)[O-])CCN(CC(=O)[O-])CC2)cc1C(C)C.[177Lu+3] (mixture of isomers)	–	mouse HT-29 xenograft	4 h, biodistribution	reference: tumour over spleen	tumour-to-spleen ratio	7.95
O=C([O-])CN1CCN(CC(=O)[O-])CCN(C(CO)C(O)CO)CCN(CC(=O)[O-])CC1.[Dy+3] (centres unmarked)	ICP-MS	female cynomolgus monkey, plasma	intravenous bolus, 0.1 mmol/kg, lanthanide mixture, geometric mean	–	AUC(0-inf)	911 µM·h
Cc1noc(C)c1Cn1cc(N2C(=O)CN(Cc3cccc(O[C@@H]4O[C@H](C(=O)O)[C@@H](O)[C@H](O)[C@H]4O)c3)C2=O)cn1	–	Sprague-Dawley rat, male	oral, 30 mg/kg of parent drug, 4 h	–	plasma concentration	1920 ng/mL
[123I]c1ccc2nc(-c3ccc(-n4ccnn4)nc3)cn2c1	–	male Wistar rat, liver	intravenous, 4 MBq, 14 h	–	tracer uptake	0.041 %ID/g
Cc1cnc2nc1Nc1cccc(c1)COC/C=C/COCc1cc(ccc1OCCN1CCOCC1)N2	–	BALB/c mice, rhEPO-induced polycythemia	100 mg/kg, day 3	–	body weight	18.2 g and 19.2 g and 19.9 g and 19.4 g
COC(=O)C(C)n1nc(Cn2cc3cc(OCC[18F])c(Cl)cc3n2)c2ccccc2c1=O (racemic)	–	rat, plasma	45 min	–	parent compound	39%

A few entries again:
Compound	assay	system	conditions	scale	endpoint	value
COc1cnc2cccc(N3CCc4c(cc(Cn5ccnc5)cc4-c4cn(C)nc4C(F)(F)F)C3=O)c2c1	–	male CD-1 mouse, plasma	intravenous, 3 mg/kg	–	half-life	60 min
CN[C@H]1CC[C@H]([C@@]2(C)Oc3c(Cl)cc(C(=O)NCc4c(C)cc(C)[nH]c4=O)c(C)c3O2)CC1	–	healthy men, feces	oral, 200 mg [14C]-valemetostat	reference: dose	excretion	1.64%
CN(O)C(=O)CCC(=O)NCCCN(CCCCN(CCCNC(=O)CCC(=O)N(C)O)C(=O)CCC(=O)N(C)O)C(=O)CCC(=O)N(C)O.[89Zr]	–	human plasma	3 d, 37 °C	–	intact complex	100%
COc1cccc(OC)c1-c1cc(C(=O)NC2(C(=O)O)C3CC4CC(C3)CC2C4)nn1-c1ccc(C(=O)N(C)CCCN(C)C(=O)[C@H](CCCCNC(=O)[C@H](CC(C)C)NC(=O)C2OC2C(=O)O)NC(=O)CN2CCN(CC(=O)[O-])CCN(CC(=O)[O-])CCN(CC(=O)[O-])CC2)cc1C(C)C.[177Lu+3] (mixture of isomers)	–	mouse HT-29 xenograft	24 h, biodistribution	reference: tumour over spleen	tumour-to-spleen ratio	6.07
COc1ccc(-c2cc(=O)c3c(OC)c(O)c(OC)cc3o2)cc1	cyclic voltammetry	DMSO, 0.1 M Bu4NPF6	25 °C	–	half-wave potential	-2.12 V vs Ag/AgCl
CN(C)C(=O)c1cccc(N2Cc3cn(Cc4cccc(C(F)(F)F)c4)nc3C2)c1	metabolic stability	rat, liver microsomes	–	–	half-life	33 min
C=CC(=O)N1CCCC(n2c(=O)c3ncccc3n(Cc3ccc(Oc4ccccc4)cc3)c2=O)C1 (centres unmarked)	–	male BALB/c mouse, plasma	intraperitoneal, 200 mg/kg, 5 min	–	concentration	29200 ng/mL
